# Results of several laboratories.
# Compare with care: the assays were run in different laboratories.
SMILES,system,setting,endpoint,result
COc1cc(Cl)c(C(=O)N[C@@H](CN[C@H]2CC[C@@H](N)CC2)Cc2ccc(C#N)cc2)cc1-c1ccc(CN[C@H](C)c2ccc(C)cc2)o1,human liver microsomes,"1 µM, pH 7.4",blood clearance,25 mL/min/kg
O=C1CC[C@H](N2Cc3cc(N4CCN(CC5CCN(c6ccc([C@@H]7c8ccc(O)cc8CC[C@@H]7c7ccccc7)cc6)CC5)CC4)ccc3C2=O)C(=O)N1,rat whole blood,"2.5 µM, 60 min",blood to plasma ratio,0.71
COc1ccc([C@@H](O)c2cc(-c3ncnc4cc(N5CCOCC5)ccc34)c(F)cc2Cl)nn1,locally advanced rectal cancer patients,"50 mg, added: capecitabine and radiotherapy",blood lymphatic disorder TEAE,0%
Cc1ccc(Sc2ccccc2N2CCNCC2)c(C)c1,healthy adult men,"oral, 2.5 mg single",blood in urine,0%
C=C(F)C(=O)N1CCN(c2nc(OC[C@@H]3CCCN3C)nc3c2CCN(c2cccc4cccc(Cl)c24)C3)C[C@@H]1CC#N,blood,,blood to plasma ratio,0.7
C=CC(=O)N(C)CCOc1c(N)ncnc1-c1cc(F)cc(NC(=O)c2ccc(C3CC3)cc2F)c1C,whole blood and plasma,,blood to plasma ratio,0.955
NC/C(=C\F)COc1cccc(Cn2c(=S)[nH]c(=O)c3[nH]cnc32)c1,human whole blood,"1 µM, 60 min",blood to plasma ratio,0.99
CNC(=O)c1ccc(-c2cnc3ncc(Cc4ccc5ncccc5c4)n3n2)cc1F,Japanese patients,"oral, 400 mg, any grade",blood creatinine increased dose reduction/interruption,5%
Cc1cc(C)c(CNC(=O)c2cc(Cl)c3c(c2C)O[C@@](C)([C@H]2CC[C@H](N(C)C)CC2)O3)c(=O)[nH]1,blood and plasma,,blood to plasma ratio,0.6

# Excerpt of the above:
SMILES,system,setting,endpoint,result
C=CC(=O)N(C)CCOc1c(N)ncnc1-c1cc(F)cc(NC(=O)c2ccc(C3CC3)cc2F)c1C,whole blood and plasma,,blood to plasma ratio,0.955
